Results of several laboratories.
Every numbered part comes from another study and shows a few of its results, in no order. Substitutions count along the parent as printed.

Study 1
Target: ABI1, truncated, D143A, DHFR fusion (Arabidopsis thaliana)
Technique: DHFR PCA, deep sequencing
Sample: yeast
Notes: methotrexate growth selection, single substitutions
Added: (+)-ABA 0.39 µM
Relative to: wild-type fitted maximum
Reading: higher = stronger binding
Starting sequence: PYL1, truncated, DHFR fusion (Arabidopsis thaliana); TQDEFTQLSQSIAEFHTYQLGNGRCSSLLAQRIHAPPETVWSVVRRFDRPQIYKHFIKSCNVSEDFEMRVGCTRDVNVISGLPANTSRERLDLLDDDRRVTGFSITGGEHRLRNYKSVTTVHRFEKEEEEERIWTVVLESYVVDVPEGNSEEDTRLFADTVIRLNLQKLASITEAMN
| Change | relative binding score [%] |
| --- | --- |
| P36M | 3.06 |
| I33G | 0.58 |
| V44W | -7.27 |
| D95G | -6.41 |
| R46P | -4.88 |
| D3Y | 38.8 |
| S104R | -7.52 |
| F47M | -6.06 |
| E174D | 2.42 |
| R123K | 60.8 |
| E4Y | 28.7 |
| L156K | -16.2 |

Study 2
Target: RNA binding protein fox-1 homolog 2, RRM domain, GST-SBP tag (RBFOX2, Homo sapiens, UniProt O43251-10, residues 100-194)
Technique: RNA Bind-n-Seq
Form: RNA
Sample: in vitro
Tested at: 365 nM
Notes: natural RNA segment, single round, ends assumed
Relative to: no-protein control
Reading: higher = stronger binding
All sequences stand within: GGGAGUUCUACAGUCCGACGAUC … UGGAAUUCUCGGGUGCCAA
Residues (chain): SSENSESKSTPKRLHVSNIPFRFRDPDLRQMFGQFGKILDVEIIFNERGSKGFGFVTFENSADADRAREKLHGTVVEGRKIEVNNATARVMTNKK
| Strand | RBNS enrichment (R) |
| --- | --- |
| GUCGGGUCUUGCUGACUUCUCUUCACUUGAGGUCACAUUUUUCCCCCGUGGGGAAAUAAACUGACUUUGGACUGCUUCAGUUUCUGCCAUCUUCCAUGACUGCUUCUAUU | 0.903 |
| AUGCCAUAAUGCCUGUUGGUAUUUGGCAAAGCACUGACCCGUGUCCUCCGUUGCUCGCACUGGGGUCUCUGGUGUGAACACCCCCGACAGCAGCCCUCCGCCCACUCUGC | 0.292 |
| ACACGUUUGUUCUAUGUUGUAAGUGUCACUCUGAAAGAAGUUUAACAGUAUCUGGUUUUUAAAAUAUUUGCUAUGUAGUAAUGGGCAUUUUAAGAUAUAGUUAAGAUAUA | 0.736 |
| CCUCACUGAGUGCCUCAUCCUACCGGGUGUCCCUUUGCCACCCUGCCUGGGACAUCGCUGGAACCUGCACCAUGCCAGGAUCAUGGGACCAGGCGAGAGGGCACCCUCCC | 0.264 |
| UGAAAUGAAACACUCACUAUAUAAACCACACUUGCCUCACAGAGAUCCUCCUGCCUCUGUCUCCUGAAUGUUGGGACAAAAGUAUGUGCCACCCCUACCCAGCGAGAACA | 0.931 |
| CGGUUGUAGCGGAGUGGGCUGAACACUGUAACACUGUACAUGCGAUUUCCCCAUGGGCUUCUAAAAUGUCACCAUCUCCUCCCCUGCUGUGUCCUACUCCAUUUACUGGU | 0.4 |
| CUGUGGUCCAGAAAUCAAUGUGUUUGUCUGACAAAAAAAAAAAUAAAAUAAAAUAAACUGUUUUGAACAGAGUUGUUUGGUGUUCUUUCACUUGCAGAGGAGGUCUGGGG | 1.71 |
| UGCUGUUAGUGUGCUCAACUACAGAAAUAGCCGCUGCUAAGUGAUGUAGAUUUUCUACUUGAAUAUUUUUAUGUUGUAGGAACCUCAGGAGGUCAGUGUUUACUGUUUUA | 0.351 |
| GAAAAUGCCAACUUGGUUUUUUAACUCCUCUCACCCUGUUAGCUCUGAUUAAAAACACUGCAACCCAGCUAACUUGUCCAGCAUAUGUUGAAUGGGAGCCAAAGUGUAGC | 1.16 |
| UGCAGUCACUGGGCAGCCACAUAGCAGCUGCAGGUCCCAGGAGGGCCUGAGGUCAAAGCUGUGGAAGGCCCUCUUGGUAUCAGGGCUCUCUCCCCAUGGCCUCUUCCCCA | 0.272 |
| ACAUUUCUCUAUUUUUUGAAAUACAAUUGCAAUAACUUCAGUCUUUUUACAUUCUUCUGCUGCAUCCAUACAAUGCUCCACUGCUGUUGAGUGUCCUUUAACUGUGGACC | 0.269 |
| AUUCUCAGCCCAGUGGGCCUCAGCUGCCUUUGGUAGGUUCCAUCCCUUAGCCAUUCCCACCCAUCUGUAACAAUGAUCUGGGAGCUCGGCUCCAAGCAUCCCUGGUUACC | 2.07 |

Study 3
Target: Sal-like protein 4, full length isoform A (SALL4, Homo sapiens, UniProt Q9UJQ4, residues 1-1053)
Chain of UniProt Q9UJQ4 (whole entry, looked up): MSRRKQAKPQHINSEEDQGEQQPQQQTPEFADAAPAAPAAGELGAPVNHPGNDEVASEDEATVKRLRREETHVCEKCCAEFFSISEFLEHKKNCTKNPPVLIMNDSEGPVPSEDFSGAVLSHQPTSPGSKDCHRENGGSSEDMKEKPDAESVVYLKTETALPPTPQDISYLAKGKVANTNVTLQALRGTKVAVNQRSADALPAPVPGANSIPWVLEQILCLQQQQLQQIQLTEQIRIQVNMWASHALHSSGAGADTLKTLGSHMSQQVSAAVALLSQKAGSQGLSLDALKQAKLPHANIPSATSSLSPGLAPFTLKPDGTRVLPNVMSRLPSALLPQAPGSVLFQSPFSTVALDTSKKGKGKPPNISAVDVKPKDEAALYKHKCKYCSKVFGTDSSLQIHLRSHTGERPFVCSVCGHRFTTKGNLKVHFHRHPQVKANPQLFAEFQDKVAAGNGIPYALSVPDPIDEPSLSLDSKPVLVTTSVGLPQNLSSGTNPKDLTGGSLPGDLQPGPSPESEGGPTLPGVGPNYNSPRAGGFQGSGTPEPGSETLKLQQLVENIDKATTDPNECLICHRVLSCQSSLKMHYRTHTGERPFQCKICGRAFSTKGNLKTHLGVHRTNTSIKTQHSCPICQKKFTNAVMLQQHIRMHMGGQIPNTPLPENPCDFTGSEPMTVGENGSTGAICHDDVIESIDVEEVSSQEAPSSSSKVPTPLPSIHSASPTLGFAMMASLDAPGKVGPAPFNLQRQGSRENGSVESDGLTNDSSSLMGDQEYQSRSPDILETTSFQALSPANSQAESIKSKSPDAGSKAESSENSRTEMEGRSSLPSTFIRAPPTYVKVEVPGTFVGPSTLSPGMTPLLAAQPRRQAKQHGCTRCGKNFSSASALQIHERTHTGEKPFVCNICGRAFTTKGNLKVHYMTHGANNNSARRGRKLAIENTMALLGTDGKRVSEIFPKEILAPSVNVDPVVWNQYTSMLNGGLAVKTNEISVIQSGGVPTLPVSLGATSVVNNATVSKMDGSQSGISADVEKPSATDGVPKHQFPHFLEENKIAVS
Technique: universal PBM
Form: double-stranded DNA, one strand shown
Sample: in vitro
Tested at: 600 nM
Notes: 8-mer, flanks averaged, mean of replicates
Reading: higher = stronger binding
| Strand | E-score |
| --- | --- |
| CAAAGTTA | 0.176 |
| CAGAGTCC | -0.00348 |
| AGACTAGG | -0.00215 |
| AAGGGCAC | -0.21 |
| CAATTGAA | 0.137 |
| AGTTCGCG | -0.175 |
| GCAAATCA | 0.14 |
| AACTACGT | 0.138 |
| CTTCGAGA | -0.0863 |
| AAAAGCTT | 0.139 |
| CAAAAATG | 0.202 |
| CATGTAGC | -0.00475 |
| ATTTTAAC | 0.23 |
| AAGACCCT | 0.00598 |
| CTAACCAA | 0.0961 |
| GTATCTGA | 0.0462 |
| AATCCACA | 0.178 |
| CAATCCTG | 0.124 |
| GGCGCACA | -0.21 |
| ACCGCCTA | -0.141 |
| GCTAGAAC | -0.118 |
| ATCTGTGG | -0.158 |
| GAGGCTCC | -0.295 |
| GAGGTGCA | -0.206 |
| AGAGCCCC | -0.354 |

Study 4
Target: CCNB2, cyclin fold, Cln2 fusion (human)
Technique: yeast growth competition, sequencing
Sample: yeast
Notes: weak parent motif
Relative to: not given
Reading: higher = stronger binding
Starting sequence: CDC6 docking peptide (human); TLKGRRLVFDNQL; partner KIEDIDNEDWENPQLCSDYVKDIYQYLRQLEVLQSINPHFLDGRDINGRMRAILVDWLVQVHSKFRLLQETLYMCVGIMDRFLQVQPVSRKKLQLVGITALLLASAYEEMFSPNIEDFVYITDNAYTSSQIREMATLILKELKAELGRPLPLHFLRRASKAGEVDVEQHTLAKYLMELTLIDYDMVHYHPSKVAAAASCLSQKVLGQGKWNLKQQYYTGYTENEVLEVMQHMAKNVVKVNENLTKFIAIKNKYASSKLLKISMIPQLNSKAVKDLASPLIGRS
| Change | normalised enrichment score |
| --- | --- |
| TGKGRRLVFDNQL [L2G] | -0.0754 |
| TLKGRRLVQDNQL [F9Q] | 0.505 |
| TLKGRGLVFDNQL [R6G] | -0.245 |
| TLKGRRLVFDNAL [Q12A] | 0.284 |
| TLKGRRLDFDNQL [V8D] | 0.0569 |
| TLKGRRMVFDNQL [L7M] | 0.251 |
| TIKGRRLVFDNQL [L2I] | -0.23 |
| TLKGRRLVNDNQL [F9N] | 0.39 |
| ALKGRRLVFDNQL [T1A] | 0.613 |
| TLKGRRLVFLNQL [D10L] | 0.103 |
| TLKGSRLVFDNQL [R5S] | -0.598 |
| TLKGRRLVFDNQF [L13F] | 0.213 |
| TLKGRRLVFDNCL [Q12C] | -0.146 |
| TLKGRRLIFDNQL [V8I] | 0.0176 |
| HLKGRRLVFDNQL [T1H] | 0.033 |
| TLKGGRLVFDNQL [R5G] | -0.0383 |
| TLKGRRLVFCNQL [D10C] | 0.861 |
| TLSGRRLVFDNQL [K3S] | 0.252 |
| TLKGRRLVFVNQL [D10V] | -0.185 |
| TLKGRRLVFDNQM [L13M] | 0.471 |
| THKGRRLVFDNQL [L2H] | 0.0426 |
| TLKGRELVFDNQL [R6E] | -0.747 |
| KLKGRRLVFDNQL [T1K] | 0.577 |
| RLKGRRLVFDNQL [T1R] | 0.567 |
| TLKGRRLFFDNQL [V8F] | 0.261 |

Study 5
Target: Phosphate system positive regulatory protein PHO4, full length, GST-tagged (PHO4, Saccharomyces cerevisiae, UniProt P07270, residues 1-312)
Technique: competition protein-binding microarray
Form: double-stranded DNA, one strand shown
Sample: in vitro
Tested at: 2 µM
Notes: whole 60-bp probe, lowest competitor level
Added: Cbf1 competitor, 0.05 µM
Reading: higher = stronger binding
All sequences stand within: … GTCTTGATTCGCTTGACGCTGCTG
Target sequence (chain): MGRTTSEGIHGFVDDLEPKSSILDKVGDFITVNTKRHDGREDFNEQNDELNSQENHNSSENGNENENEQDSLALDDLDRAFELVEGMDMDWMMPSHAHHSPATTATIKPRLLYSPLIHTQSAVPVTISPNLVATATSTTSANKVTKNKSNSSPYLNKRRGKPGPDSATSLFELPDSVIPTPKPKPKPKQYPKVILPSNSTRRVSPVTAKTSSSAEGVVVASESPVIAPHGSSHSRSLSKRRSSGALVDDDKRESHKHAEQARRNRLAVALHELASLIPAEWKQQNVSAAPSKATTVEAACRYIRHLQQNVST
| Strand | fluorescence intensity [a.u.] |
| --- | --- |
| CGGGGTTAAGTTTTTCACGTGGAGTGCTTGCAGCAG | 12400 |
| CTCCTCCTCCGGCTTCACGTGTGGAATAGGTGTATG | 14000 |
| CTTTTGAGAATTGTCAACGTGGGTAGGTTCGTTTCG | 13100 |
| GTCTTGTCTCATTGCTGAGTGGGTGTCCCCACTTCA | 4120 |
| CGTCCTAGTGATTGTACAGTGGGTGCCATGAGGAAG | 6380 |
| AACGAAATCCACCATCACGTTCCTAGCAACAAGAGG | 12200 |
| CGGGGTTAAGTTTGTCACGAAACTTGCTTGCAGCAG | 3520 |
| TATATGTTTCACTGGCACGTTTTGTTTTGTCCCCTT | 14000 |
| GAAATTTTACTGATTGGCGTGGGACAGTTTTTGTTA | 5840 |
| CTAACGAAGGTTTGTTATGTGGGTGACAAGCCAAGT | 4010 |
| AAGATAGGATTGAACATCGTGCAAACAATGGCCAGC | 9470 |
| TAGATTCCTAATTGTCTTGTGACGCTTAAAGCAGGG | 3260 |
| TTTTGCTAAAATGAACTTGTGTCGCAAATTCCGTTC | 4080 |
| ATATGCTTTTGTTCGCATGTGGTGTTATTCCAGTTG | 10700 |
| TCGGACGATAACGCCGGCGTGATGGCCACAGAAACA | 4990 |
| GGTACAGACACAAAGCTCGTGCAAAGTGCTGTCCTA | 9880 |
| TGGTCTAGTCTTACCCACGCACTCGCAGGAACAAAC | 9260 |
| CGATATAGCACCGACCATGTGGGCAAATTCGTAATA | 12100 |
| AAATTGGATGAAGTTGTTGTGATGCTCAAGAAAGTT | 3890 |
| AGCCGGCAGTTGAATCAGGTGCTTCATCACTGGCAT | 4110 |
| CGTCCTAGTGATTGTCACGCGACTTCCATGAGGAAG | 7050 |
| CTGAACCGTCTTCGTCACGCTAGAGTTACTAGAAGA | 4070 |
| TTAAGAAGCCTTTTCCATGTGAGGAAGCTTCGCCTT | 3900 |
| AGAAAATCATATCACCACGTGGACCTCTCAAAGACT | 20500 |
| ATTTGGCGAACTGTGAACGTGCGGAGGGCAGAATCC | 11700 |

Single results of other studies
| Substance | target | test | test system | conditions | scale | measurement | value |
| --- | --- | --- | --- | --- | --- | --- | --- |
| PhoQ, residues 284 288 289 292 302 303 GASLAW | PhoP, residues 12 14 15 18 19 VQALL (Escherichia coli, UniProt P23836) | Sort-seq, measured: YFP reporter | E. coli | PhoQ-PhoP variant library, added: 10 µM Mg2+ | relative to: high Mg2+ state, higher = stronger signaling | fold induction | 9.04 |

Some of these lines once more (study 4):
| Change | normalised enrichment score |
| --- | --- |
| TLKGRRLVFDNAL [Q12A] | 0.284 |
| TLKGRRLDFDNQL [V8D] | 0.0569 |
| TLKGRRMVFDNQL [L7M] | 0.251 |
| TIKGRRLVFDNQL [L2I] | -0.23 |
| TLKGRRLVNDNQL [F9N] | 0.39 |
| ALKGRRLVFDNQL [T1A] | 0.613 |
| TLKGRRLVFLNQL [D10L] | 0.103 |
| TLKGSRLVFDNQL [R5S] | -0.598 |
| TLKGRRLVFDNQF [L13F] | 0.213 |
| TLKGRRLVFDNCL [Q12C] | -0.146 |
| TLKGRRLIFDNQL [V8I] | 0.0176 |
| HLKGRRLVFDNQL [T1H] | 0.033 |
| TLKGGRLVFDNQL [R5G] | -0.0383 |
| TLKGRRLVFCNQL [D10C] | 0.861 |
| TLSGRRLVFDNQL [K3S] | 0.252 |
| TLKGRRLVFVNQL [D10V] | -0.185 |
